Results collected from several papers.
Parts stem from different laboratories: compare values within a part only. Positions count from the first letter of the parent shown.

Series 1 — target: BIRC6 UBC core domain (UniProt Q9NR09); method: yeast two-hybrid; medium: yeast; notes: mostly zero background; relative to: not given; reading: higher = stronger interaction
B1: RNF170 RING domain (UniProt Q96K19); chain TRQQFYTDMYCPICLHQASFPVETNCGHLFCGACIIAYWRYGSWLGAISCPICRQTVTLLLTVF
B2: RNF25 RING domain (UniProt Q96BH1); chain LTDNNIPHGQCVICLYGFQEKEAFTKTPCYHYFHCHCLARYIQHMEQELKAQGQEQEQERQHATTKQKAVGVQCPVCREPLVYDLASL
B3: MID1 RING domain (UniProt O15344); chain METLESELTCPICLELFEDPLLLPCAHSLCFNCAHRILVSHCATNESVESITAFQCPTCRHVITLSQRGL
B4: IRF2BPL RING domain (UniProt Q9H1B7); chain SPMANSGPLCCTICHERLEDTHFVQCPSVPSHKFCFPCSRESIKAQGATGEVYCPSGEKCPLVGSNVP
Residues (chain): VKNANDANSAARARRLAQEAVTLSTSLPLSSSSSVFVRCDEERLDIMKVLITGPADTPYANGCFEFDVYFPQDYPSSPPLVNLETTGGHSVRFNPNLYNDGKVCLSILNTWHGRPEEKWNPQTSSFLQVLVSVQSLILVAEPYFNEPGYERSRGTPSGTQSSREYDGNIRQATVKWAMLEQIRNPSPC
Sequence | lacZ reporter activity
B1 (RNF170 RING domain) | 0
QHHELTSLFECPVCFDYVLPPILQCQAGHLVCNQCRQKLSCCPTCRGALTPSIRNL (SIAH2 RING domain (UniProt O43255)) | 0
B2 (RNF25 RING domain) | 0
PEELQAMDNVCIICREEMVTGAKRLPCNHIFHTSCLRSWFQRQQTCPTCRMDVLRASLPA (SYVN1 RING domain (UniProt Q86TM6)) | 0
QLRRLQEERTCKVCMDKEVSIVFIPCGHLVVCKDCAPSLRKCPICRSTIKGTVRTF (BIRC3 RING domain (UniProt Q13489)) | 0
KTLSRFGIQPCSICLGDAKDPVCLPCDHVHCLRCLRAWFASEQMICPYCLTALPDEFSPA (RNF213 RING domain (UniProt Q63HN8)) | 0
FPEHFVKSISCQICEHILADPVETNCKHVFCRVCILRCLKVMGSYCPSCRYPCFPTDLES (RAG1 RING domain (UniProt P15918)) | 0
B3 (MID1 RING domain) | 0
B4 (IRF2BPL RING domain) | 0
VTLSLTLPITCHICLGKVRQPVICINNHVFCSICIDLWLKNNSQCPACRVPITPENPCK (OBI1 RING domain (UniProt Q5W0B1)) | 0
DAIPSLSECQCGICMEILVEPVTLPCNHTLCKPCFQSTVEKASLCCPFCRRRVSSWTRYH (RNF168 RING domain (UniProt Q8IYW5)) | 0
EDEVSDNSAECVVCLSDVRDTLILPCRHLCLCNTCADTLRYQANNCPICRLPFRALLQIR (RNF157 RING domain (UniProt Q96PX1)) | 0
QLQDIKEQTMCPVCLDRLKNMIFLCGHGTCQLCGDRMSECPICRKAIERRILLY (MIB1 RING domain (UniProt Q86YT6)) | 0

Series 2 — method: DHFR PCA, deep sequencing; medium: yeast; together with: (+)-ABA 0.39 µM; relative to: wild-type fitted maximum; reading: higher = stronger binding
Target: ABI1, truncated, D143A, DHFR fusion (Arabidopsis thaliana)
Notes: methotrexate growth selection, single substitutions
Starting sequence: PYL1, truncated, DHFR fusion (Arabidopsis thaliana); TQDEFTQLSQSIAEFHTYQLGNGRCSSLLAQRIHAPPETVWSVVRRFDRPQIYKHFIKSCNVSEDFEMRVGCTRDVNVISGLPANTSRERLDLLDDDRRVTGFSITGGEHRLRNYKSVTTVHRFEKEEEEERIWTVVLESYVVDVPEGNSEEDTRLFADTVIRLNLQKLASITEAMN; partner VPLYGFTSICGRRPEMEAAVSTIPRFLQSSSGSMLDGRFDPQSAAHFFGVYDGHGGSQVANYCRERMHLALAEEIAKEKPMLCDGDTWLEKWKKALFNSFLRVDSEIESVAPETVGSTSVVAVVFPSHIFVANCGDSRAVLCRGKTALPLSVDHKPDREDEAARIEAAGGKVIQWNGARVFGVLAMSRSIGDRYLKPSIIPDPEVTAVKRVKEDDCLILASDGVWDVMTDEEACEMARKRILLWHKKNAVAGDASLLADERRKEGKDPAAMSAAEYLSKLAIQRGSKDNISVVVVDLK
Substitution | relative binding score
T86F | 48%
V118M | 12.2%
V145R | -9.83%
T106F | 28.7%
R111G | -0.0189%
N114V | -3.89%
F5P | 7.18%
R90Y | -7.16%
L29I | 47.6%
S104T | 54.8%
L29Q | -4.13%
H55F | 34.8%
Y141P | -3.83%

Series 3 — method: RNA Bind-n-Seq; form: RNA; medium: in vitro; concentration: 365 nM; relative to: no-protein control; reading: higher = stronger binding
Target: RNA binding protein fox-1 homolog 2, RRM domain, GST-SBP tag (RBFOX2, Homo sapiens, UniProt O43251-10, residues 100-194)
Notes: natural RNA segment, single round, ends assumed
Construct (chain): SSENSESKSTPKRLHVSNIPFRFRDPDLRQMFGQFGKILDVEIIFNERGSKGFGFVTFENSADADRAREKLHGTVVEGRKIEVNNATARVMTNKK
Oligonucleotide | RBNS enrichment (R)
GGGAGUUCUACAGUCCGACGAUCCCAGGGCUCCCUUGGCCCCUUCACGUAGGAAAUAGACACGUGCUUUUUAAUGCAGGACACUUUGAGUGUUACAAAAUCUGUAGACCUGGCAGUAGGGUCAUGAUGUUGGGUGGAAUUCUCGGGUGCCAA | 0.384
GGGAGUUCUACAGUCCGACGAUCUGAAACUCAUAGCAAUAAUGCUAUGCUGUUGUGAUCCCUCUCAAGUUCUGCAUUUAAAAUAUAUUUUUUCUUUAUAGGAAUUGAUGUAUACCAUGAAGUCAUUGUCAGUUUGGAAUUCUCGGGUGCCAA | 0.383
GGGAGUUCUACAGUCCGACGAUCGGACGACAUGACGACGUGCCUUUUCAUUUUACAUCCUCUGUCCCCUAGGGUAAGUUUUUCAGCAUUAAAUAAAACAUUUCAAAUAUACUGUAAAUGGCUUUAGUUGUAAAUGGAAUUCUCGGGUGCCAA | 0.393
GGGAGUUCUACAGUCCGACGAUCUUUGCCUCAUAGGCAGAGGAUUCUCCAGGAAGCAUGGAAAAUGGAAUGUUUCCAUGCUUUACAGUGCUGGGAGAGAGGGGAGAUGUGGGCAGGACCUUUUGGAAGGAUGUUGGAAUUCUCGGGUGCCAA | 3.35
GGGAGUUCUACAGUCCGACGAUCGCCUUUUGGACUUGAGUUUGUAUGUUCUGUAGGAACUACAUGCAUUCCUUUCACACAGUAUUUCAGGCUGCUGUGGUGAAUUUGAAUGGCAGAUCCUACAGUCAAUAGAUUGGAAUUCUCGGGUGCCAA | 0.811
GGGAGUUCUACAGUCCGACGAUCGAUUCAUUUGUGUAACUCACUGAAGCCAAAAUACUAUCUUUUAAGAUGUCCCACAUGGAAGACGCUAUUCCAGGAUCUUUAAAUUUCCAUGGAUGCAUAUAGGAUGUUUGUGGAAUUCUCGGGUGCCAA | 0.478
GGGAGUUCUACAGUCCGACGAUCGUGUUCCUUCCUGCAGGCCUUGGAGCCCUGACCAGGCCAGUCCUGGGCACUGCUUAGAUGGCUGUUAGCUUAGAACUGGUGAAGUAAAGAUUUGGUCCCAGAAACCAGCCUGGAAUUCUCGGGUGCCAA | 0.225
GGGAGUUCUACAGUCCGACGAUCUAAAUUACUUUGUGAUUACAAGCAAAUUUUCUAUUUGACAAAGCCCUUGGUGGAGUCCAAAUGAUUUUUCUGUACCAUAUUGUUCUCUUACACAUACGUAUGUUAGGAAAUGGAAUUCUCGGGUGCCAA | 0.292
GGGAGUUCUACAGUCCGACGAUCUGGGGUCAAGGGGCCUGGACCAGUAGAAGCCAUCAACCUACUGAAGUUGUGUGGAGGGAUGGAAAGUGGGUCAGUGGAGAAGGGAUUCAGAAAAUGACACAUUCUUCCCCUGGAAUUCUCGGGUGCCAA | 0.694
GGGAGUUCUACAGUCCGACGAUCUUCAGGGGAAGACUGUGGUCAAGUUAAAAAAAAAAAACAAUAUUAAACAACAUGAAACUGCAGUCUGUUUUUGAAAAUGAGAAUGUCCUAAGUGAUUCAGAAGAGAGGAGUGGAAUUCUCGGGUGCCAA | 1.18
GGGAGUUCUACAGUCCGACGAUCGAGGCGGAGGUUGCAGUGUGCCAAGAUCAUACCACUGCACUCCAGCCCUGGUGACAGAGGAGACCCCGUCUCAAAAAUUGAUUGAUCAAUUCAGCAUCUGAGGGCUGCAAUGGAAUUCUCGGGUGCCAA | 0.407
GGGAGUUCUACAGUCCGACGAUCGGGUAGCCUGGGUGUAAAACCUGGAGAUGGUGGAUGAUCCCCACGCCACAGCCCUUUUGUCUCUGCAAACUGCCUUCUUCGGAAAGAAGAAGGUGGGAGGAUGUGAAUUGUGGAAUUCUCGGGUGCCAA | 0.485

Series 4 — method: RNA Bind-n-Seq; form: RNA; medium: in vitro; concentration: not given; relative to: input RNA pool; reading: higher = stronger binding
Target: RING finger protein unkempt homolog, zinc fingers 1-6, GST-SBP tag (UNK, Homo sapiens, UniProt Q9C0B0, residues 30-357)
Sequence of UniProt Q9C0B0 (30-357, looked up): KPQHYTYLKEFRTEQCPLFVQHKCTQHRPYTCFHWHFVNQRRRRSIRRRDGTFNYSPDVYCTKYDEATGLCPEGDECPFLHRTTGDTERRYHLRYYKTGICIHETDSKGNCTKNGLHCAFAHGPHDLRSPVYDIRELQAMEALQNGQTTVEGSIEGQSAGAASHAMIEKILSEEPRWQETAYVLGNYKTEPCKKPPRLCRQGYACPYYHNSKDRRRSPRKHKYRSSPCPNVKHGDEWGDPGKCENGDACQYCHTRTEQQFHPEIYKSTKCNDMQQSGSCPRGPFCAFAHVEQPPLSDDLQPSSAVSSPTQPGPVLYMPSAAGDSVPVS
Notes: RNA with constant flanks, human-mouse chimeric sites, ends assumed
Oligonucleotide | bound/input enrichment [ratio]
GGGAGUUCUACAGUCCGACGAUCAUAGAUGAAAUUGAUGUGGACCAGGAAGGAAUUGCUGAAAUGAUGCUGGAUGAAAAUGCUAUUGCUCAGGUCCCACGCCCUGGCACAUCUUUGAAGCUCCCUGGCACUAAUCAGACAGGACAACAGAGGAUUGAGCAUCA | 0.237
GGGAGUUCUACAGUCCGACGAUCCAGCCUCAGAGCCCAGACUUCCUGGAUAUUACCAACCCUAAAGCGGUAUUAGAAAACGCACUUAGGAACUUCGCCUGUCUGACGACUGGAGAUGUGAUUGCUAUCAACUACAAUGAGAAGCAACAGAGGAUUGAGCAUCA | 0.542
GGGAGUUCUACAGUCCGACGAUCCUCAGAGAUGUGGCAUAUCAAUAUGUGAAAAAGGGGGCUCGUAUAUUUUUGGAAGGGAAAGUGGACUAUGGCGAGUACAUGGAUAAAAACAAUGUGAGGCGGCAAGCAACAACAAUCAUACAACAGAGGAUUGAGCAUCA | 0.48
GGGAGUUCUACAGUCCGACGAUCUAAGUCCUGUGCCAGCACUUCGCUCAUAAAGUUUUAAAUUCUGGACCAAUAGUGUUUAUCUUUAGAAUUUUGUAUUCAAUACUUUGCCUAGUAUGUAACUCACUCUUACUGAUAAUAAAACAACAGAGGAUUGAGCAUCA | 6.68
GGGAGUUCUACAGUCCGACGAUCUCUUAACUUAUUCAUUUAACUUAUUUUUAGCACUUAGUAAAUAUUGUUAGUCUUAGACAAUAGCUCACAUUUUUUGAGAAGCAUGCCCUCCCUGUCCAUUUGUCUUACAAUAACACUCAGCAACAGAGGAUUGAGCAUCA | 376
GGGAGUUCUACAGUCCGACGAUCAGAAUCUUGGGACUGUUUUACUUAAUUGGUCAUUGAUAGCUUAACAAACAUGGAGAUAAGAUUAGAAAUCUUGACAUCAACAGGUAUUAAGCAGAAAAAACCCUGGCCACGUGUCUCCUGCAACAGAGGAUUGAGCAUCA | 0.129
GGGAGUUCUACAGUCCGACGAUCGAUAAGAAAAGCUUGUUGGAGACCCGCUUGCAUGUCACUGGUAGAGACCUGAGGUGUCAAAUAGCUGAAACUUUCGGAUUUCAAGAAAAUUACAUCAAAAUUGUCAUAAAUAAGAAGCAGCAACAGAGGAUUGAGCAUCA | 0.529
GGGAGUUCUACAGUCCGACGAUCACAGUUAUAUUGUUGAGGUUUGUAUUUUUGUAUGUUUGUAGUGUCUGCUUGCCUGUGACUUCUGGUAAAAUAAAAUAAGCCUUUGAAAAUAUUUUAGCAUGGUAUUUAACAUUUUCUAAACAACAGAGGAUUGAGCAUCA | 2.19
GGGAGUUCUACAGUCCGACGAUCGUACUGCAGCAGCAGGGAAAACUGCAGGAAGCUCUGAUGCAUUAUAAGGAGGCUAUUCGAAUCAGUCCUACAUUUGCUGAUGCCUACUCCAAUAUGGGAAACACUCUAAAGGAGAUGCAGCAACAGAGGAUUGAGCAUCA | 0.196
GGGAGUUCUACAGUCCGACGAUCCUCAUGGCUGCAGAAACAGGAAGUGGAAAAACUGGUGCAUUUAGUAUUCCAGUUAUCCAGAUAGUGUAUGAAACUCUGAAAGACCAACAGGAAGGAAAAAAAGGAAAAACAACUAUUAAACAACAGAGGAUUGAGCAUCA | 0.946
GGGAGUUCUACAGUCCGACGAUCGCUGGAUCUUCUAAGUACCAGUGGGACAUUAUGAAAUCCCUUGGGCUCUCUGAUGACGACAUAGUGAAGUUUUCUGAAGCAGAACAUUGGCUUGAUUAUUUCCCACCACUGGCCGUUCAGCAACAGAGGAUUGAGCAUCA | 0.228

Repeated from above (series 2):
Substitution | relative binding score
N114V | -3.89%
F5P | 7.18%
R90Y | -7.16%
L29I | 47.6%
S104T | 54.8%
L29Q | -4.13%
